Experimental data of several laboratories.
Each numbered part is a random draw from the data of one study; scales do not carry over between parts. Changes are numbered by the printed parent chain.

Block 1
Target: Sal-like protein 4, full length isoform B (SALL4, Homo sapiens, UniProt Q9UJQ4-2, residues 1-616)
Technique: universal PBM
Form: double-stranded DNA, one strand shown
Medium: in vitro
Tested at: not given
Setting: 8-mer, flanks averaged, mean of replicates
Reading: higher = stronger binding
Sequence | E-score
GGCCCCAC | -0.26
ATAGAGCG | 0.0559
AGTGATCA | -0.076
ATGCCCAC | -0.0429
CCCTTGCA | -0.213
GCCTCTAC | -0.177
AAGGGGCC | -0.31
AGGAAACG | 0.0276
ACTACCAG | -0.163
AGAACACA | 0.0213
AATCCCGC | -0.106
AATCTTAC | 0.256
ACGGGACG | -0.256
CGACCAAC | -0.134
CAAACCTC | -0.152
ATTTCGCG | 0.129
GGCATAGA | -0.103
GGGATTTA | 0.122
GGAACTTA | 0.0769
TCAACAAA | 0.145
AGAAGTGA | 0.0215
CAGGTTTC | -0.191
AAAATAGG | 0.262
CTAACACC | -0.182
CCACGTAC | -0.0693

Block 2
Target: Phosphate system positive regulatory protein PHO4, full length, GST-tagged (PHO4, Saccharomyces cerevisiae, UniProt P07270, residues 1-312)
Technique: competition protein-binding microarray
Form: double-stranded DNA, one strand shown
Medium: in vitro
Tested at: 2 µM
Setting: whole 60-bp probe, lowest competitor level
With: Cbf1 competitor, 0.05 µM
Reading: higher = stronger binding
Constant ends, left off below: … GTCTTGATTCGCTTGACGCTGCTG
Construct (chain): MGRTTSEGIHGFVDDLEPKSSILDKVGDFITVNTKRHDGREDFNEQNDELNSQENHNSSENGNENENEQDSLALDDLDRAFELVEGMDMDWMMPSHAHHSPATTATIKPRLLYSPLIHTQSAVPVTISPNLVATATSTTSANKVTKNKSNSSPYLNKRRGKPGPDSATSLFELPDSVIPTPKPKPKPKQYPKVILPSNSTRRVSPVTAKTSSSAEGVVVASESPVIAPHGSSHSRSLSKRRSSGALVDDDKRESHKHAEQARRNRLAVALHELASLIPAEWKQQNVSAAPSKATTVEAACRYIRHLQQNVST
Sequence | fluorescence intensity [a.u.]
GTGAACTACAACAAAAAGAGAAGGCTGGTAAGGGCA | 3340
AAAAAATAAGCTTTTCTCGTGCCGAGAGTGGTGTAC | 6070
CTAACGAAGGTTTTTCACGTGCAATACAAGCCAAGT | 13800
ACCTTGAGCTCGAAAAATGTGACGGATACTTTTTCC | 4250
CCGCCTAGCAAACACCTCGTGCCAGTCATTACCGAC | 13800
CGGGGTTAAGTTTGTCACCTCACTTGCTTGCAGCAG | 3250
TGCGCAACAACTTGGTTGGTGGGTGTATGTCTAGAA | 5060
GAAAGCCTGGTAGGACACGTGATGGCTTGTTCGCCA | 15400
CTTCTGTAAATTTGCCCTGTGGGTGGACGCGCCCCG | 4580
CGTTCACTCATCCATAATTGATAAATTTGCGAAATT | 3220
TGCGCAACAACTTGTCACAGGACTTTATGTCTAGAA | 3050

Block 3
Target: CCND2, cyclin fold, Cln2 fusion (human)
Technique: yeast growth competition, sequencing
Medium: yeast
Setting: weak parent motif
Baseline: not given
Reading: higher = stronger binding
Starting sequence: PKN2 docking peptide (human); VSAVQKLDFSDTM
Variant | normalised enrichment score
S2T | 0.742
L7F | 0.545
F9I | 0.139
S10C | 0.611
L7C | 0.192
S2A | 0.691
D11S | 0.45
D8E | 0.264
F9W | -0.0236
M13A | 0.537
V1F | 0.989
S10E | 0.737
F9S | 0.198

Block 4
Target: Ras GTPase-activating protein-binding protein 1, RRM domain (G3BP1, Homo sapiens, UniProt Q13283)
Sequence of UniProt Q13283 (whole entry, looked up): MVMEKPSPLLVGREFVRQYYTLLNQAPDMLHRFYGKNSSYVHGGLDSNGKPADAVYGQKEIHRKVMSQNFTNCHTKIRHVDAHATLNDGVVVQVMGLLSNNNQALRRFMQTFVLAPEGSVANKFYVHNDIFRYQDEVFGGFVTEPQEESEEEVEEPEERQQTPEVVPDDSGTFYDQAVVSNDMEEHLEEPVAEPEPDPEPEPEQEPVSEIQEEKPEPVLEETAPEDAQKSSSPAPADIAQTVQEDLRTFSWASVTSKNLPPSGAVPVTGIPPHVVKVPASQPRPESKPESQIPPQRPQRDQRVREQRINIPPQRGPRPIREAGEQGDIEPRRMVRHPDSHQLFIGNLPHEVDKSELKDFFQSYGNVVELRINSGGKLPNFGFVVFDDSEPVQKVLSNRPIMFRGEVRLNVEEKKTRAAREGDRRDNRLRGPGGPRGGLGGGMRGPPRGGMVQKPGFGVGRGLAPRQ
Technique: RNA Bind-n-Seq
Form: RNA
Medium: in vitro
Tested at: 1 µM
Setting: whole 134-nt RNA, ends assumed
With: 150 mM KCl
Baseline: input library
Reading: higher = stronger binding
Constant ends, left off below: GGGAGUUCUACAGUCCGACGAUC … UGGAAUUCUCGGGUGUCAAGG
Sequence | log2 enrichment
GCAGGAAGUAAAAACAAAUGGGAAUGCUUCGGAUAGUGGCAGGGGUGGGGGUUGCUAAGGAAAGGGUGGGAUGGGAGUGGGUAAAGAGUU | 1.22
UAACUUUAGAGGAGGAUCUGAUGGAUAUGGCAGUGGACGUGGAUUUGGGGAUGGUUAUAAUGGGUAUGGAGGAGGACCUGGAGGUGGCAA | -0.31
GACAGACAACACGCACCCACACAGACACAGAGGGAAGGGGUUGGGAUGGGGACAGGGUGCACAGCAGGGCGGGGUAGGACCCCAGCCCCU | -0.00398
GCAGGAAGUAAAAACAAAUGGAAAUGAAACGGAUAGUGGCAGGGGUGGGGGUUGCUAAGGAAAGGGUGGGAUGGGAGUGGGUAAAGAGUU | 1.15
GUCCUGUGCUACACAUCGUAUGUACCGAAUCGGGCCCCCGGGCCCCCGGGCCCCCGGGGAAAGUAUUAUGUUACGCCGUUCGGAUCUGCA | -0.658
CUCAAGUCCUGUGCUACACAUCGUAUGUACCGAAUCGGGUGGGAGGGUUUGGGAAAGUAUUAUGUUACGCCGUUCGGAUCUGCACUUCCA | 0.922
AGUCCUGUGCUACACAUCGUAUGUACCGAAUCGGUUUUUUUGGAAAAAAAGGUUUGGAAAGUAUUAUGUUACGCCGUUCGGAUCUGCACU | -0.665
UAAUUAUGUUUUAUUUUCUUUAAUUGCAGGACUUCAUAGACCUCACGUUGUCGAAGACUCAACGAAAGACUCCAACCGUUAUUCAUAAAC | -0.585
UCAAGUCCUGUGCUACACAUCGUAUGUACCGAAUCGGAAAGGUUUUUUUGGUGGAAAGUAUUAUGUUACGCCGUUCGGAUCUGCACUUCC | -0.251

Block 5
Target: Interferon regulatory factor 7, full length, phosphomimetic (IRF7, Homo sapiens, UniProt Q92985, residues 1-503, S471D/S472D/S475D/S476D/S477D/S483D/S484D/S487D)
Technique: protein-binding microarray
Form: double-stranded DNA, one strand shown
Medium: in vitro
Tested at: 2200 nM top
Setting: 60-bp whole probe
With: salmon DNA 0.4 mg/ml
Baseline: random background probes
Reading: higher = stronger binding
Constant ends, left off below: GCCTAGCAC … GTCTTGATTCGCTTGACGCTGCTG
Construct (chain): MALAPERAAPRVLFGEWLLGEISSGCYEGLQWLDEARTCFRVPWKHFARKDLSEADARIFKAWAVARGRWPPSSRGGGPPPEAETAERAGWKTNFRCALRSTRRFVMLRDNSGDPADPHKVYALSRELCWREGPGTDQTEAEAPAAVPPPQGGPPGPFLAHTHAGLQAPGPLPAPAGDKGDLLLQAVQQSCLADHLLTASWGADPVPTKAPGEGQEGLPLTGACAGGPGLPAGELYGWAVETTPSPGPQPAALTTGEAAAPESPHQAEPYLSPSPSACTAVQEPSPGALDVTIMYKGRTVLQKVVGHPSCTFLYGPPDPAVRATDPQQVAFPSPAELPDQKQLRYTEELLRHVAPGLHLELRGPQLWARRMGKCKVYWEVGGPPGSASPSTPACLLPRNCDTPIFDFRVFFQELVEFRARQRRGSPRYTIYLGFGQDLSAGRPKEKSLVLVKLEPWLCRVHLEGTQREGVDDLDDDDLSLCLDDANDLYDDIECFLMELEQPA
Sequence | fitted relative affinity [z-score]
TTAGATATCAGTCTCGAATAGTGCTAG | 0.0164
AACGATTTCAGTCTCGAGACGTGCTAG | 0.906
GACGATCTCAGTCTCGACACGTGCTAG | 0.241
TTAGGATCCGGTTTCGGTTAGTGCTAG | 7.17
GACGGACTGGGTATCGGGAAGTGCTAG | -0.623
TCAGGTTTCACTTTAAAACTGTGCTAG | 4.78
GACGGCCTGCTTCTCCTGACGTGCTAG | 0.591
GACAGACTGGACACTGGGGACGTGCTA | -0.715
TTAGGACTGGGTATCGGATAGTGCTAG | -0.423
TTAGGACTGGACCATCGGTTAGTGCTA | -0.666
GGGCATTTGGAAAATGTAAACGTGCTA | -0.678
TCACTTCTAATATTCATACTGTGCTAG | 1.59
TTAGGTTTCGTTCTCCTTTAGTGCTAG | 7.74
GACGGTTTCGGGTATCGGGAAGTGCTA | 6.08

Block 6
Target: Histone acetyltransferase KAT6A, winged helix 2, GST fusion (KAT6A, Homo sapiens, UniProt Q92794, residues 85-181)
Technique: protein binding microarray
Form: double-stranded DNA, one strand shown
Medium: in vitro
Tested at: not given
Setting: 8-mer, flanks averaged, mean of 2 arrays, mostly near background
Baseline: not given
Reading: higher = stronger binding
Construct (chain): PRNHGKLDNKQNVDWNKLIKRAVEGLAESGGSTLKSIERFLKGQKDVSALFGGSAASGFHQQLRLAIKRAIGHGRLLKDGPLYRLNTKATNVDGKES
Sequence | E-score
ACCAACAA | 0.169
ACGCGTTG | 0.124
CCCTCTGC | 0.156
AACGGTTC | -0.113
CTGTACTC | -0.0694
ATTTGGGA | 0.0048
ACAAGTTC | 0.0463
AAGGAGAT | -0.0922
GAACGGAA | -0.0548
GGTAGAGA | -0.11
CGACAGCA | 0.115
CTAAGAAC | 0.107
ACGCTGTA | 0.0534
CGTCTAGA | -0.101
GTTGACCA | 0.0622
GACGACTC | -0.171
AGCCACTA | -0.0409
CTGCTACC | 0.189
GACGGGCC | 0.0679
AGACAAGC | -0.0035
CATTGGAA | 0.0369
CGAACGTA | -0.246
CGAGATCA | 0.175
ACCATTGA | -0.118
ATCGTAAT | -0.199

Block 7
Target: ABI1, truncated, D143A, DHFR fusion (Arabidopsis thaliana)
Technique: DHFR PCA, deep sequencing
Medium: yeast
Setting: methotrexate growth selection, single substitutions
With: (+)-ABA 710 µM
Baseline: wild-type fitted maximum
Reading: higher = stronger binding
Starting sequence: PYL1, truncated, DHFR fusion (Arabidopsis thaliana); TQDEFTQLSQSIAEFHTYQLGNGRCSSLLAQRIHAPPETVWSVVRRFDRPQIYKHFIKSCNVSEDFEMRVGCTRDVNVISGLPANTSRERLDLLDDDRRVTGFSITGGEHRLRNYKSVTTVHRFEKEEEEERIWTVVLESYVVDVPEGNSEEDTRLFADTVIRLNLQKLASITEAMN; partner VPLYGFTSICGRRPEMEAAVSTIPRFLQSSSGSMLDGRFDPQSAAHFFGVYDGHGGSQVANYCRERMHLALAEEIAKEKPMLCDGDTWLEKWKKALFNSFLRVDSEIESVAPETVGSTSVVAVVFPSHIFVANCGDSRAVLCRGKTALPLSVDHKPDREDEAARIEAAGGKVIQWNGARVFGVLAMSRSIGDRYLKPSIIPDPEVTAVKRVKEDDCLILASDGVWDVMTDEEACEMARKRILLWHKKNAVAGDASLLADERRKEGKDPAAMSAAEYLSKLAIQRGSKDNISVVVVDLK
Variant | relative binding score
E127V | 110%
V137P | -5.12%
E174C | 95.3%
N22E | 105%
N177G | 101%
R88P | 12.7%
G71A | 69.7%
Q31A | 74.1%
S80H | 80.3%
D144I | 69.1%
K58M | 90%
S59I | 91.1%
M68F | 105%
T173G | 89.7%
P50R | -2.37%
D153K | 4.37%
V44C | 95.5%
F157V | 87%

Excerpt of the above (block 1):
Sequence | E-score
AATCTTAC | 0.256
ACGGGACG | -0.256
CGACCAAC | -0.134
CAAACCTC | -0.152
ATTTCGCG | 0.129
GGCATAGA | -0.103
